Assay results pooled from the literature.
Every numbered part comes from another study and shows a few of its results, in no order. Several values in a cell are separate wells, animals, samples, runs or records.
Chain of UniProt Q05513 (whole entry, looked up): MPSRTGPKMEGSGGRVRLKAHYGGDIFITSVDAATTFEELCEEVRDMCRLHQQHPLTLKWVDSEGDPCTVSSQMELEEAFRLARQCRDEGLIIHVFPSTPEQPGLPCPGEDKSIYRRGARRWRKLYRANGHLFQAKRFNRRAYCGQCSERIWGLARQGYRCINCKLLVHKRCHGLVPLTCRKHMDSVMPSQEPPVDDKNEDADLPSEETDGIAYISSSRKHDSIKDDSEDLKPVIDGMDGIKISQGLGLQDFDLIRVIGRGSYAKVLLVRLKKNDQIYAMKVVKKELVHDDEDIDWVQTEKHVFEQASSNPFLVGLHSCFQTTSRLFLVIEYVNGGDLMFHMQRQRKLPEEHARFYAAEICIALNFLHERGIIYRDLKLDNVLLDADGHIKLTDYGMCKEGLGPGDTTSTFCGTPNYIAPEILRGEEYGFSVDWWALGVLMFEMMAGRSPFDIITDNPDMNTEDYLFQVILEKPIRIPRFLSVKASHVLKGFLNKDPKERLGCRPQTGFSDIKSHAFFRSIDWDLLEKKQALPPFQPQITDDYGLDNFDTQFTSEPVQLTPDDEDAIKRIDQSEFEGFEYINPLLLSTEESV
Chain of UniProt Q04759 (whole entry, looked up): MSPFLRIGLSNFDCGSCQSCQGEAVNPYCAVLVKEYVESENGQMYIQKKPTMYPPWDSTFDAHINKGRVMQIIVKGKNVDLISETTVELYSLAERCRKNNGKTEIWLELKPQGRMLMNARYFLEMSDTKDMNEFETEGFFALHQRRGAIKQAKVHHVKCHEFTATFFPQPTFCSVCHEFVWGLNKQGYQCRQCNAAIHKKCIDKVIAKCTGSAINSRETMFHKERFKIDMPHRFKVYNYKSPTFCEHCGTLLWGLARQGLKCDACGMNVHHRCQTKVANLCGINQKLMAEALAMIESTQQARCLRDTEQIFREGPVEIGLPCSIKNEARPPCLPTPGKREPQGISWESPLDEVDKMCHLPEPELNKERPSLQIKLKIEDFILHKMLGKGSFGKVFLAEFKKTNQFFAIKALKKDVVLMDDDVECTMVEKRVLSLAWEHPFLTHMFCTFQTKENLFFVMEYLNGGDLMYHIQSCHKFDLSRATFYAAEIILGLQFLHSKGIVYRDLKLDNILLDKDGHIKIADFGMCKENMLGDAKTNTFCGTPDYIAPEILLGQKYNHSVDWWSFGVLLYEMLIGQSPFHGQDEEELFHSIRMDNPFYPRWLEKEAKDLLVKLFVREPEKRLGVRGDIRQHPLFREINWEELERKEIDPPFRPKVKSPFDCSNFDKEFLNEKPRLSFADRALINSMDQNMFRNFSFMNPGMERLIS
Chain of UniProt P48730 (whole entry, looked up): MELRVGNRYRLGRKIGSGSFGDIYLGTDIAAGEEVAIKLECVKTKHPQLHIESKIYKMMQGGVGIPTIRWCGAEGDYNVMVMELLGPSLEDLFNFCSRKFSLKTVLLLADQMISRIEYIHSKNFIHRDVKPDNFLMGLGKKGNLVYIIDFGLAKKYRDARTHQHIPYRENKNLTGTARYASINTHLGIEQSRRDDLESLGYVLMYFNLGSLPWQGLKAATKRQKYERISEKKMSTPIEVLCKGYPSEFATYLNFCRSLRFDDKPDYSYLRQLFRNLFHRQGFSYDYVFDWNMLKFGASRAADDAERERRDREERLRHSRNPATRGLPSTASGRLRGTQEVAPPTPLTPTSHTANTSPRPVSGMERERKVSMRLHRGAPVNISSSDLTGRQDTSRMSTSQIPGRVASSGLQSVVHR
Chain of UniProt P08069 (whole entry, looked up): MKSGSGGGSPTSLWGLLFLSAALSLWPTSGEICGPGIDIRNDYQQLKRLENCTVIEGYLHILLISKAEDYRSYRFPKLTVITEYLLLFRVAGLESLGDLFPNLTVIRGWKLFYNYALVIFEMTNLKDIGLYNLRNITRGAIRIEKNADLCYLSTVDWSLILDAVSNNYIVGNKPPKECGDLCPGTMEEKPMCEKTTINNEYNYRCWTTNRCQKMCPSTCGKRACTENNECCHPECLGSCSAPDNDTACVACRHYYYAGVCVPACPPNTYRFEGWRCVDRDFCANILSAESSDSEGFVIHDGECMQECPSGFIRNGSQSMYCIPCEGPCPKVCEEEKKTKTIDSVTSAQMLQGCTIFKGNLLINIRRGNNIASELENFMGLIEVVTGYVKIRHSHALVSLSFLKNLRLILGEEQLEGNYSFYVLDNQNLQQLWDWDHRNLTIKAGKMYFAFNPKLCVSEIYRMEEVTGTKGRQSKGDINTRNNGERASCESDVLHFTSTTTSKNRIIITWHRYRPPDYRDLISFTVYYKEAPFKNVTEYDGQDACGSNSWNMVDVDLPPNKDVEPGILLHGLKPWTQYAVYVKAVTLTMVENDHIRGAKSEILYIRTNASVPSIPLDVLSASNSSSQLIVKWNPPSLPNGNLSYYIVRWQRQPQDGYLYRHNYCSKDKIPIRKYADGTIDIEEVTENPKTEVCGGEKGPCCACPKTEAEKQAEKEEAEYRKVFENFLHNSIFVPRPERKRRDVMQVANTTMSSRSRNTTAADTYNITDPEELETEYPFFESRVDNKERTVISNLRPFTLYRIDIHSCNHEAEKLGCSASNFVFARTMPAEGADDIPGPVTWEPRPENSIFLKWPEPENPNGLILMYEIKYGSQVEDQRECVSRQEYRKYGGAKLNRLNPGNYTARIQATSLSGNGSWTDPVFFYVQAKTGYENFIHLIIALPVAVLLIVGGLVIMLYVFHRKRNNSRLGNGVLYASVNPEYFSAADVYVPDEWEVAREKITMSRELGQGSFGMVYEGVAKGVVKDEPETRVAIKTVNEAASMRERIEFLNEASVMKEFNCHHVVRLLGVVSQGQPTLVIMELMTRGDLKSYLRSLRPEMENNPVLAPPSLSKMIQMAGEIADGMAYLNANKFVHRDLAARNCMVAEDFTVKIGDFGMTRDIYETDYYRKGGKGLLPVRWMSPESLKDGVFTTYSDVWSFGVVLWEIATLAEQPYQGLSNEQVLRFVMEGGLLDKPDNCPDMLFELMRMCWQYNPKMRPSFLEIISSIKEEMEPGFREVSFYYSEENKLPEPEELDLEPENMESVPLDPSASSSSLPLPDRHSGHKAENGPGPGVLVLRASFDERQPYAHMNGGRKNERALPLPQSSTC
Chain of UniProt O15146 (whole entry, looked up): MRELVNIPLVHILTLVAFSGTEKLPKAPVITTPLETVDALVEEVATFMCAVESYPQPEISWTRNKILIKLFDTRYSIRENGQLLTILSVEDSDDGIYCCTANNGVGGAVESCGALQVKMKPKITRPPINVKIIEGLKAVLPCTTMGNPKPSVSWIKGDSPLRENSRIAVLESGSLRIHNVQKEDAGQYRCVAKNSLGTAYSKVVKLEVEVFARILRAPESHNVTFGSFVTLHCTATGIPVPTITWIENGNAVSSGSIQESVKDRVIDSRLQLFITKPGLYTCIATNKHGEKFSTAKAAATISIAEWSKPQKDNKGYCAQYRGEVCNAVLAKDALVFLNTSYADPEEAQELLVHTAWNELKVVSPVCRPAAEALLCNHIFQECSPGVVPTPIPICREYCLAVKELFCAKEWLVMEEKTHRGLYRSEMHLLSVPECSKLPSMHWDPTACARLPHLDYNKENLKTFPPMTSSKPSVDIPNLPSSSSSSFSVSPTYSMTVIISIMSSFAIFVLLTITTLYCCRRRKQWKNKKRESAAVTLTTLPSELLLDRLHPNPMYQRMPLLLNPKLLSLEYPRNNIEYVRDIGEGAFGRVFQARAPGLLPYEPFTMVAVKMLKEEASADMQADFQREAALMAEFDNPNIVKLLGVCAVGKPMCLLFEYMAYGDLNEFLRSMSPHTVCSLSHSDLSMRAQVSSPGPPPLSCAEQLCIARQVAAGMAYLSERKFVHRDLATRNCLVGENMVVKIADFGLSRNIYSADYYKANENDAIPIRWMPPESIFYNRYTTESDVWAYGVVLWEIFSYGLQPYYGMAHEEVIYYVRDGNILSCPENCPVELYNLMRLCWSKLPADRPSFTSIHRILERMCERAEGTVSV
Chain of UniProt P49759 (whole entry, looked up): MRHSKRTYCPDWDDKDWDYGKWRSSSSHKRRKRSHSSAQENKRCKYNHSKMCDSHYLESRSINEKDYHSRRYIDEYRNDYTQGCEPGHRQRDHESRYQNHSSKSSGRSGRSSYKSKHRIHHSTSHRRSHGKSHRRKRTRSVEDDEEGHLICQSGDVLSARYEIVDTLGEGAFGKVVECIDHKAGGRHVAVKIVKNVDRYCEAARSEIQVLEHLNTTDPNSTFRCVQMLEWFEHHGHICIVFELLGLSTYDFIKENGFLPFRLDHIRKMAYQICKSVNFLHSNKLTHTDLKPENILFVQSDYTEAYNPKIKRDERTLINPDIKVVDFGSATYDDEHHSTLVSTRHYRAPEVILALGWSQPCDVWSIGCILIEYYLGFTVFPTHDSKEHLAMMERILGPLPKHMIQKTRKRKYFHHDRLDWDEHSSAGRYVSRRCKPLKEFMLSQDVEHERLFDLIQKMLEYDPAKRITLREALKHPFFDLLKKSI

Study 1
Cell line: HEK-293T
Effect on: pseudovirus infection
Method: FDA-approved drug library counter-screen
Organism: VSV pseudotyped with VSV-G
Tested at: 10 µM
Time: 16 h
Reference: vehicle-treated
SMILES | GFP-positive cells
O=C(O[C@H]1C[N+]2(CCCOc3ccccc3)CCC1CC2)C(O)(c1cccs1)c1cccs1 | 96.9%
C[C@]12CC[C@H]3[C@@H](CCC4=CC(=O)CC[C@@H]43)[C@@H]1CC[C@@H]2O | 99.5%
CC(C)Cc1ccc(C(C)C(=O)O)cc1 (stereo not drawn) | 94.3%
CN1CCC[C@@H]1Cc1c[nH]c2ccc(CCS(=O)(=O)c3ccccc3)cc12 | 91%
COc1ccccc1OCC(O)COC(N)=O (stereo not drawn) | 109%
CC(C)(C)NC[C@H](O)COc1nsnc1N1CCOCC1 | 96.8%
O=C(O)Cc1ccccc1Nc1c(Cl)cccc1Cl | 77%
Cc1cc(C2CCCCC2)n(O)c(=O)c1 | 54.9%
CCCCN1CCCCC1C(=O)Nc1c(C)cccc1C (stereo not drawn) | 122%
CCCCC(=O)O[C@H]1CC[C@H]2[C@@H]3CCc4cc(O)ccc4[C@H]3CC[C@]12C | 77.7%
CN(C)C(=O)Oc1ccc[n+](C)c1 | 98.4%
CCc1cc2c(cc1CC)CC(NC[C@H](O)c1ccc(O)c3[nH]c(=O)ccc13)C2 | 106%
O=C1CCC(N2C(=O)c3ccccc3C2=O)C(=O)N1 (stereo not drawn) | 98%
O=c1[nH]c(=O)n([C@H]2C[C@H](O)[C@@H](CO)O2)cc1C(F)(F)F | 89.6%

Study 2
Structure (SMILES): O=C1NC(=O)c2c1c1c3ccccc3n3c1c1c2c2ccccc2n1[C@H]1CC[C@@H]3O1
Effect on: enzyme activity
Mode: inhibitor
Tested at: 0.5 µM
Reference: control
target | remaining activity [%]
Cyclin-dependent kinase 2, with cyclin E (CDK2, Homo sapiens, UniProt P24941) | 28.5
Insulin-like growth factor 1 receptor (IGF1R, Homo sapiens, UniProt P08069) | 63.8
Protein kinase C zeta type (PRKCZ, Homo sapiens, UniProt Q05513) | 87.4
Protein kinase C theta type (PRKCQ, Homo sapiens, UniProt Q04759) | 43.2
Muscle, skeletal receptor tyrosine-protein kinase (MUSK, Homo sapiens, UniProt O15146) | 25.8
Ribosomal protein S6 kinase alpha-3 (RPS6KA3, Homo sapiens, UniProt P51812) | 2.35
Ephrin type-A receptor 2 (EPHA2, Homo sapiens, UniProt P29317) | 91.3
Tyrosine-protein kinase receptor TYRO3 (TYRO3, Homo sapiens, UniProt Q06418) | 55.3
Calcium/calmodulin-dependent protein kinase kinase 1 (CAMKK1, Homo sapiens, UniProt Q8N5S9) | 27.2
Casein kinase I isoform delta (CSNK1D, Homo sapiens, UniProt P48730) | 93.8
Vascular endothelial growth factor receptor 1 (FLT1, Homo sapiens, UniProt P17948) | 13.3
Dual specificity protein kinase CLK1 (CLK1, Homo sapiens, UniProt P49759) | 43.1
Serine/threonine-protein kinase PAK 1 (PAK1, Homo sapiens, UniProt Q13153) | 23.6
Mitogen-activated protein kinase kinase kinase 20 (MAP3K20, Homo sapiens, UniProt Q9NYL2) | 89.7

Other studies, line by line
Compound | target or system | system | setting | measurement | value
Cc1nc(Nc2ncc(C(=O)Nc3c(C)cccc3Cl)s2)cc(N2CCN(CCO)CC2)n1 | Dual specificity tyrosine-phosphorylation-regulated kinase 1B (DYRK1B, Homo sapiens, UniProt Q9Y463) |  | 10 µM | inhibition | < 50%
CN(N=O)C(=O)N[C@@H]1[C@@H](O)[C@H](O)[C@@H](CO)O[C@@H]1O |  | mice, STZ diabetic neuropathy | dose not given, 3 days after STZ | body weight | 35.2 g and 35.6 g and 38.1 g and 31.3 g and 31 g

Some of these lines once more (study 2):
target | remaining activity [%]
Tyrosine-protein kinase receptor TYRO3 (TYRO3, Homo sapiens, UniProt Q06418) | 55.3
Protein kinase C zeta type (PRKCZ, Homo sapiens, UniProt Q05513) | 87.4
Cyclin-dependent kinase 2, with cyclin E (CDK2, Homo sapiens, UniProt P24941) | 28.5
